Assay results of several laboratories.
Numbered parts are unrelated; each lists some results of a single study. Positions count from the first letter of the parent shown.

Study 1 — method: universal PBM; molecule type: double-stranded DNA, one strand shown; medium: in vitro; tested at: not given; reading: higher = stronger binding
Target: Sal-like protein 4, full length isoform B (SALL4, Homo sapiens, UniProt Q9UJQ4-2, residues 1-616)
Setting: 8-mer, flanks averaged, mean of replicates
For `CGAGCATC`, the E-score was -0.17.
With `TCAAGTCA` the E-score was 0.103.
With `TCAAAAAA` the E-score was 0.253.
`CATTTCGC` has an E-score of 0.0213.
The E-score of `CATAAACG` is reported as 0.267.
`CACGCGCC` gave an E-score of -0.246.
With `TCTCGTCA` the E-score was 0.0243.
`ACCCAAAC` has an E-score of 0.0245.
`ACACCTCA` gave an E-score of -0.0525.
`CCTCTACC` gave an E-score of -0.217.

Study 2 — method: Sort-seq; refers to: YFP reporter; medium: E. coli; setting: PhoQ-PhoP variant library; with: 10 µM Mg2+; relative to: high Mg2+ state; reading: higher = stronger signaling
Molecule: PhoQ, residues 284 288 289 292 302 303 SLANIV
The fold induction was 7.12 (PhoP, residues 12 14 15 18 19 TQALL (Escherichia coli, UniProt P23836)).
For PhoP, residues 12 14 15 18 19 NYFRM (Escherichia coli, UniProt P23836): fold induction read 1.56.
PhoP, residues 12 14 15 18 19 QYFSL (Escherichia coli, UniProt P23836) — fold induction: 15.7.

Study 3 — target: CCNB3, cyclin fold, Cln2 fusion (human); method: yeast growth competition, sequencing; medium: yeast; setting: weak parent motif; relative to: not given; reading: higher = stronger binding
Starting sequence: MICAL3 docking peptide (human); LQLRRQLSFSEDS
For `LQLPRQLSFSEDS [R4P]`, “normalised enrichment score” read 0.122.
For `LQLRKQLSFSEDS [R5K]`, “normalised enrichment score” read -0.0369.
For `LQLHRQLSFSEDS [R4H]`, “normalised enrichment score” read -0.158.
`LQLRRQLSPSEDS [F9P]`: “normalised enrichment score” -0.125.

Study 4 — method: protein-binding microarray; molecule type: double-stranded DNA, one strand shown; medium: in vitro; tested at: not given; reading: higher = stronger binding
Target: Max dimerization protein 1, bHLH-zipper, MAX partner unstated (MXD1, Homo sapiens, UniProt Q05195, residues 56-136)
Setting: k-mer, scored over probes, only values ≥0.25
Target sequence (chain): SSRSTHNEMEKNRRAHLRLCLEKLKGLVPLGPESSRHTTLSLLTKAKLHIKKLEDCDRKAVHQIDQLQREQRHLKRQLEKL
The E-score of `CGTGCGCC` is reported as 0.355.
For `CCCCACCC`, the E-score was 0.291.
`CTCCTCCA` has an E-score of 0.263.
`TACCACGA` has an E-score of 0.287.
For `ATGCGCTC`, the E-score was 0.278.
`ACACGGGG` has an E-score of 0.402.
With `ATCATGTG` the E-score was 0.444.
`CCACGAGA` has an E-score of 0.338.
For `GACACGAC`, the E-score was 0.296.
`CGTGGCAA` gave an E-score of 0.275.
With `GCCATGCA` the E-score was 0.287.

A few entries again (study 3):
For `LQLRKQLSFSEDS [R5K]`, “normalised enrichment score” read -0.0369.
For `LQLHRQLSFSEDS [R4H]`, “normalised enrichment score” read -0.158.
